Published values collected from several papers.
Every numbered part comes from another study and shows a few of its results, in no order. Changes are numbered by the printed parent chain.

Study 1 — technique: DHFR PCA, deep sequencing; medium: yeast; with: (+)-ABA 0 µM; relative to: wild-type fitted maximum; reading: higher = stronger binding
Target: ABI1, truncated, D143A, DHFR fusion (Arabidopsis thaliana)
Notes: methotrexate growth selection, single substitutions
Parent: PYL1, truncated, DHFR fusion (Arabidopsis thaliana); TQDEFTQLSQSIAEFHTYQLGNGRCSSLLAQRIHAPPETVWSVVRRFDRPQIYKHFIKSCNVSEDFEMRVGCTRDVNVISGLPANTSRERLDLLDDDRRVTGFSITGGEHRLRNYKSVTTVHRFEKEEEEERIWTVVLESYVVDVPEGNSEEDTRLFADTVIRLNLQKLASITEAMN
Substitution | relative binding score
L169D | 4.36%
V143D | 0.495%
I12F | 3.28%
P83Q | 19.6%
Q2P | 60%
Q7H | 23%
V136T | -2.21%
A30I | 7.79%
G148P | 1.23%
F56V | -3.99%
I57A | -0.564%
N85Q | 54.4%
S87P | 8.58%
V40D | -0.31%

Study 2 — technique: protein binding microarray; form: double-stranded DNA, one strand shown; medium: in vitro; concentration: not given; relative to: not given; reading: higher = stronger binding
Target: Histone acetyltransferase KAT6A, winged helix 1, GST fusion (KAT6A, Homo sapiens, UniProt Q92794, residues 1-85)
Notes: 8-mer, flanks averaged, mean of 2 arrays, mostly near background
Construct (chain): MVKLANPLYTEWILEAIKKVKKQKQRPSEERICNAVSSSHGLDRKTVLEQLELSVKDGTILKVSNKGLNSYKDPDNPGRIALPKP
Strand | E-score
CTACCTAG | -0.115
CGACTATA | -0.132
ATCTTACG | 0.193
AGAGTTCG | -0.108
GGAAACAC | 0.151
CTTATAGC | 0.0824
AAAGAATC | -0.0509
AGCGTATA | 0.11
ACCAAGGT | -0.154
CATCGTGA | 0.00914
TGCCGAAA | 0.0962
GTCTCCAC | -0.0391

Study 3 — technique: protein-binding microarray; form: double-stranded DNA, one strand shown; medium: in vitro; concentration: 250 nM; notes: 60-bp whole probe; with: salmon DNA 0.4 mg/ml; relative to: random background probes; reading: higher = stronger binding; all sequences stand within: GCCTAGCAC … GTCTTGATTCGCTTGACGCTGCTG
Target: Interferon regulatory factor 5, full length, phosphomimetic (IRF5, Homo sapiens, UniProt Q13568-2, residues 1-514, K96S/S451D/S453D/S456D/S462D)
Strand | log fluorescence [z-score]
GACGATCTCAGTCTCGAGACGTGCTAG | 0.12
CCACCACCAACACCAGTCATGTGCTAG | -0.102
TCATTTTTTTTTTCATCATTGTGCTAG | 1.64
TTAGGACTGGGGATTCGGTTAGTGCTA | -0.234
TTAGGTATCGGTTTCGGTGAGTGCTAG | 10
GACGGACTGGGTTTAGGGACGTGCTAG | -0.573
AAGACCATCCTATGTAGATGTGTGCTA | -0.205
TGGGGTTCACTCCGGTACCCGTGCTAG | -0.505
GACGATTTCGAGTTTCGAGACGTGCTA | 5.38
TCATCCATGTGTTTAAAACTGTGCTAG | 0.374
GCCATTGTGGATCTTGCAGAGTGCTAG | -0.225

Further values, each from its own experiment
Molecule | target | test | system | setting | scale | endpoint | value
PhoQ, residues 284 288 289 292 302 303 TNSAEL | PhoP, residues 12 14 15 18 19 LHHSG (Escherichia coli, UniProt P23836) | Sort-seq, item: YFP reporter | E. coli | PhoQ-PhoP variant library, with: 10 µM Mg2+ | relative to: high Mg2+ state, higher = stronger signaling | fold induction | 16.6

For quick reference, copied from above (study 1):
Substitution | relative binding score
Q7H | 23%
S87P | 8.58%
V136T | -2.21%
L169D | 4.36%
V143D | 0.495%
